Results from different studies.
“And” joins repeats or separate records; there may be more than shown. ± gives the spread as reported.
GBA2: Beta-glucosidase (GBA2, Homo sapiens, UniProt Q9HCG7)
UniProt P11712, sequence (whole entry, looked up): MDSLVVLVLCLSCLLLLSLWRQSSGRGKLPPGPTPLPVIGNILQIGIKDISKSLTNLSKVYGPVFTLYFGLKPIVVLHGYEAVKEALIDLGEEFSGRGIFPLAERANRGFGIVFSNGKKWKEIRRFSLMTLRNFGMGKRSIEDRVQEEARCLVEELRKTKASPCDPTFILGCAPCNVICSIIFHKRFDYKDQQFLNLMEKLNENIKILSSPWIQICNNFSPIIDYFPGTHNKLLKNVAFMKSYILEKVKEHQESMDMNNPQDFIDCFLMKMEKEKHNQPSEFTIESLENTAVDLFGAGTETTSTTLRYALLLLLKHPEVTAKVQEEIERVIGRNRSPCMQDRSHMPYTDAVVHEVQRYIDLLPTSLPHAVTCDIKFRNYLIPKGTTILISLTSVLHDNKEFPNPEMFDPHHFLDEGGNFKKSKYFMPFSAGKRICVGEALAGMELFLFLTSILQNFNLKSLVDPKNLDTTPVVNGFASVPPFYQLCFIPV
UniProt Q9HCG7, sequence (whole entry, looked up): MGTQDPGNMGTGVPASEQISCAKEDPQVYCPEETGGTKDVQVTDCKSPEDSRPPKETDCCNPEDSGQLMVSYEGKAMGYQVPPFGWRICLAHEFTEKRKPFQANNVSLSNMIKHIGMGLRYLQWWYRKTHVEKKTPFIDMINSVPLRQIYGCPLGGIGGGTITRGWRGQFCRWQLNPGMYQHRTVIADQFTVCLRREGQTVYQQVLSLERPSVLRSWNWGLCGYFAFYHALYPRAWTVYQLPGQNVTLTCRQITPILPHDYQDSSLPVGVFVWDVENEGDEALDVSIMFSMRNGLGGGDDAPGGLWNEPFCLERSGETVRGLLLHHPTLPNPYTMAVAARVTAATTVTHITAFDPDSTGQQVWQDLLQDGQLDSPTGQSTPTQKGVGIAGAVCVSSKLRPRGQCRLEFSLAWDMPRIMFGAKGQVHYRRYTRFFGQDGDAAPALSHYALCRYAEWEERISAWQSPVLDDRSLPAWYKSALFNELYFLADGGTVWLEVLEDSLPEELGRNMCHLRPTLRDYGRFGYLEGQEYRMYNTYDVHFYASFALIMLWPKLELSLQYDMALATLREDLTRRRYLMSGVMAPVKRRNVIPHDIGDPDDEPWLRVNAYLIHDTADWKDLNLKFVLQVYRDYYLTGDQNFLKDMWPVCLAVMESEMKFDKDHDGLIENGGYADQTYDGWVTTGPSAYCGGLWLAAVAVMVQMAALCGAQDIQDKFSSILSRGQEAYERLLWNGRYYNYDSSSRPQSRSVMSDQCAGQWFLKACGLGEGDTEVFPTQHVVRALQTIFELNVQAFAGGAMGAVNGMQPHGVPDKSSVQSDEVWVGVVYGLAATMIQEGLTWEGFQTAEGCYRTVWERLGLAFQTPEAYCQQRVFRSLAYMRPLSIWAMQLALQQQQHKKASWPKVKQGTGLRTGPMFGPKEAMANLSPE
UniProt Q15349, sequence (whole entry, looked up): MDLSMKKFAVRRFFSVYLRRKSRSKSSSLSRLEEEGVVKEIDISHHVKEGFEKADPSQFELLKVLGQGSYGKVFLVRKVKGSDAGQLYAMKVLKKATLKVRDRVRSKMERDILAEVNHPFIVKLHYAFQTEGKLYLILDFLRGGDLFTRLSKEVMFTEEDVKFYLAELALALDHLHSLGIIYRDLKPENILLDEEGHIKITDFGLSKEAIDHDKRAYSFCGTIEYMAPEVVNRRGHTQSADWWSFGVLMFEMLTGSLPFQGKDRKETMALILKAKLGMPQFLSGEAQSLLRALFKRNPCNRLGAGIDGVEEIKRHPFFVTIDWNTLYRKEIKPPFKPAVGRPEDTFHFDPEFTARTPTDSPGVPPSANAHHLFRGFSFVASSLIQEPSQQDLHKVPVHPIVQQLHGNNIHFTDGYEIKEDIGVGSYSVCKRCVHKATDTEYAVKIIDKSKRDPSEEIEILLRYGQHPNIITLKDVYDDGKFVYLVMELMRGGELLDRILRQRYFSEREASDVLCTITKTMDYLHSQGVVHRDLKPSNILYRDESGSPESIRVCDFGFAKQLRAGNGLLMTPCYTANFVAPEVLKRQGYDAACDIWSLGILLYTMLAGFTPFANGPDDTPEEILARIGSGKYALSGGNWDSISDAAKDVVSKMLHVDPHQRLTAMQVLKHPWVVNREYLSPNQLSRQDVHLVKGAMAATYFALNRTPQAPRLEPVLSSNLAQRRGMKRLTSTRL

Structure (SMILES)	target or system	assay	system	conditions	scale	measurement	value
O=C1CS/C(=N\N=C\c2cccc3cc4ccccc4nc23)N1c1ccc(F)cc1	PATU	cell proliferation, MTT	–	48 h	–	IC50	> 50000 nM
O=C(NCc1cc(F)cc(F)c1)[C@@]1(O)CCN(c2ccc3[nH]ccc3c2)C1=O	PAXF736	colony formation	–	–	–	IC50	140 nM
O=S(=O)(N[C@@H]1CCC[C@H](N2c3ccccc3Oc3ccccc32)[C@H]1O)c1ccc(OC(F)(F)F)cc1	E98	cell viability, CellTiter-Glo	–	72 h	–	IC50	15500 nM
C=CC(=O)Nc1cccc(Cn2ncc3cnc(Nc4cnn(CCOC)c4)nc32)c1	NEK7 human	binding, KINOMEscan	–	100 nM	lower = stronger binding	percent of control	97%
CC[C@H](C)[C@H](NC(=O)C[C@H](NC(=O)CN1CCN2CCN(CC1)CC(=O)[O][Al]([18F])[O]C(=O)C2)C(=O)O)C(=O)N[C@H]1CCc2cccc3c2N(C1=O)[C@H](C(=O)NCc1cn[nH]n1)C3	MC-38 tumour model	–	host not given, kidney	30 min, tumour-bearing	–	tracer uptake	4.27 %ID/g
CC1(C)CC(=O)C2=C(C1)Oc1ccc(Cl)cc1C2c1c(C(=O)O)[nH]c2ccccc12 (stereo not drawn)	3T3-L1 pre-adipocytes	cell viability, MTT	–	72 h	–	IC50	32.6 ± 0.77 µg/mL
COC1CN([C@H]2CC[C@H]([C@@]3(C)Oc4c(Cl)cc(C(=O)NCc5c(SC)cc(C)[nH]c5=O)c(C)c4O3)CC2)C1	–	RNA-seq, measured: PTPRB mouse homolog	mouse, HT-1376 xenograft, whole blood	dose not given	relative to: vehicle	log2 fold change	2.82
C=CC(=O)N1CCCC(n2c(=O)c3ncccc3n(Cc3ccc(Oc4ccccc4)cc3)c2=O)C1 (stereo not drawn)	CLBL-1	cell growth or viability, MTT	–	72 h	–	IC50	300 nM
Cc1ccc([N+](=O)[O-])cc1S(=O)(=O)N(C)/N=C/c1cnc2ccc(Br)cn12	NCI60	cytotoxicity, MTS	–	–	–	IC50	8 nM
C=CCOCO[C@H](C(=O)NC[C@@H]1C[C@@H](OC)C(C)(C)[C@@H](C[C@@H](COC)OC)O1)[C@@]1(OC)CC(=C)[C@@H](C)[C@@H](C)O1	Renca	cell viability, sulforhodamine B	–	72 h, 37 °C, without H2O2	–	IC50	2460 ± 75 nM
CCOC(=O)/C=C1\S/C(=N\N=C\c2cccc3cc4ccccc4nc23)N(c2ccccc2)C1=O	PATU	cell proliferation, MTT	–	48 h	–	IC50	> 50000 nM
N#Cc1c(N)nc2c(c1-c1cccs1)Cc1cc(O)ccc1-2	HH	cell growth or viability, ATP luminescence	–	–	–	IC50	62900 nM
COc1cc(-n2cc3cc(F)cc(C(N)=O)c3n2)cc(Cl)c1C1CC(O)(CCO)Cc2ccccc21 (stereo not drawn)	SNU1	cell growth or viability, MTT	–	72 h	–	IC50	110 nM
CNC(=O)C1CCCN(C(=O)C2CC3CCC2N3C(=O)[C@@H]2C[C@@H](O)CN2C(=O)NCc2cccc(Cl)c2F)C1 (mixture of isomers)	Cytochrome P450 2C9 (CYP2C9, Homo sapiens, UniProt P11712)	preincubation with NADPH	human	0.0686 µM	relative to: negative control	remaining activity	101% and 92.4% and 104%
CCn1nc(Cl)c2c1-c1cnc(N)c(c1)O[C@H](C)c1cc(F)ccc1-c1nn(C)cc1C2	Ba/F3 EML4-ALK variant 1	cell viability	–	–	–	IC50	1.7 nM
COc1ccc(Br)c2c1OC1=C(C(=O)CCC1)C2c1c[nH]c2ccccc12 (stereo not drawn)	3T3-L1 pre-adipocytes	cell viability, MTT	–	72 h	–	IC50	> 100 µg/mL
O=C(NC1(O)C(=O)c2ccccc2C1=O)c1cccc2c1-c1ccccc1C2=O	HEK293-A GFP-LC3B	LC3B puncta formation	–	22 h, together with: chloroquine, torin1	–	IC50	> 20000 nM
OC[C@@H]1[C@@H](O)[C@H](O)[C@@H](O)CN1CCCCCOCc1ccc(-c2ccccc2)cc1F	GBA2	inhibitor, 4MU-β-D-glucopyranoside	HEK293T homogenates overexpressing GBA2	–	relative to: GCS IC50 over GBA2 IC50	selectivity ratio	313
CCOC(=O)/C=C1\S/C(=N\N=C\c2cccc3cc4ccccc4nc23)N(c2cccc(OC)c2)C1=O	PATU	cell proliferation, MTT	–	48 h	–	IC50	> 50000 nM
COc1ccc(-c2c(C#N)sc(C(=O)NC3(O)C(=O)c4ccccc4C3=O)c2-c2ccc(OC)cc2)cc1	HEK293-A GFP-LC3B	LC3B puncta formation	–	22 h, together with: chloroquine, torin1	–	IC50	> 20000 nM

Structure (SMILES)	target or system	assay	system	conditions	scale	measurement	value
Cn1ncc(-c2ccc3c(=O)[nH]nc(CN)c3c2)c1-c1c(F)c(Cl)cc(OC2CC2)c1C#N	SK-LU-1	cell viability, inhibitor, CellTiter-Glo	–	120 h, baseline-subtracted	–	IC50	130 nM
Cc1cc2c3c(c1)C(C)(c1ccccc1)CC(C)(C)N3C(=O)C2=O (stereo not drawn)	HEK293-A GFP-LC3B	LC3B puncta formation	–	22 h, together with: chloroquine, torin1	–	IC50	> 20000 nM
CC1(C)CC(=O)C2=C(C1)Oc1ccc3ccccc3c1C2n1nnc2ccccc21 (stereo not drawn)	3T3-L1 pre-adipocytes	cell viability, MTT	–	72 h	–	IC50	79.2 ± 1.43 µg/mL
COc1ccc(C(O)=CC(=O)c2ccc(C(C)(C)C)cc2)cc1.[Ru+2].c1ccc(-c2ccccn2)nc1.c1ccc(-c2ccccn2)nc1	DU-145	cytotoxicity	–	dark	–	IC50	93 nM
Cc1ncsc1-c1ccc(C(C)NC(=O)C2CC(O)CN2C(=O)C(NC(=O)CCCCCCCCCCN2CCCC(Nc3ncc(Cl)c(Nc4ccccc4S(=O)(=O)C(C)C)n3)C2)C(C)(C)C)cc1 (stereo not drawn)	22Rv1	RNA-seq, measured: SUV39H1 mRNA	–	concentration not given	relative to: DMSO	log2 fold change	-1.05
C=CC(=O)N1CC2C(=O)N(CCN(C)C)c3c(c4cc(Cl)c(-c5c(O)cccc5F)nc4n(-c4c(C)ccnc4C(C)C)c3=O)N2CC1C (stereo not drawn)	SK-LU-1	cell growth or viability	–	–	–	IC50	> 10000 nM
CC(C)c1ccc(N(C)c2ccc3c(c2)OCC[C@H]3CNc2cnccc2C(=O)O)cc1	RL	cell growth, CellTiter-Glo	–	7 days	–	IC50	2.99 nM
CCOC(=O)/C=C1\S/C(=N\N=C\c2cccc3cc4ccccc4nc23)N(c2ccc(OC)cc2)C1=O	PATU	cell proliferation, MTT	–	48 h	–	IC50	> 50000 nM
N#Cc1ccc(-c2ccc(COCCCCCN3C[C@H](O)[C@@H](O)[C@H](O)[C@H]3CO)cc2)cc1	GBA2	inhibitor, 4MU-β-D-glucopyranoside	HEK293T homogenates overexpressing GBA2	–	relative to: GBA1 IC50 over GBA2 IC50	selectivity ratio	117
C=CC(=O)N1C[C@H](C)N(c2nc(OC[C@@]34CCCN3C[C@H](F)C4)nc3c(F)c(-c4ccc(F)c5sc(N)c(C#N)c45)c(C(F)(F)F)cc23)C[C@H]1C	Ba/F3 expressing KRAS G12C/Y96D	cell viability, CellTiter-Glo	–	3 days	–	IC50	3.5 nM
CCOc1cncc(-c2ccc(NC(=O)C3(c4ccnc(NS(=O)(=O)C5CC5)n4)CCOCC3)nc2)n1	Malme-3M	cell proliferation, CellTiter-Glo	–	72 h, Melanoma cancer	–	IC50	10000 nM
CCN(C(=O)c1cc(F)ccc1Oc1nncnc1N1CCC2(C1)CN([C@H](CCCN(C)CCOC)C(C)C)C2)C(C)C	MV4-11 (KMT2A-AF4, FLT3-ITD)	inhibitor, QuantiGene multiplex, measured: FLT3 mRNA	–	–	–	IC50	53 ± 5 nM
C=C(NC(=O)c1csc(-c2nc3c(cc2O)-c2nc(cs2)C(=O)NC(C(C)O)C(=O)NC(=C(C)OC)c2nc(cs2)C(=O)NC2c4nc(cs4)C(=O)NC(COC(=O)c4c5c6c(cccc6n4O)COC(=O)C(OC4CC(C)(O)C(N(C)C)C(C)O4)C2OC5)c2nc-3cs2)n1)C(N)=O (stereo not drawn)	–	–	ICR mice, Streptococcus pneumoniae ATCC 49169 infected, immunocompromised, blood	intravenous, 4 mg/kg/day once daily	–	Tmax	4.8 min
N#Cc1c(N)nc2c(c1-c1ccc(CO)o1)Cc1cc(O)ccc1-2	HH	cell growth or viability, ATP luminescence	–	–	–	IC50	2400 nM
CC[C@H](C)C(=O)O[C@H]1C[C@@H](C)C=C2C=C[C@H](C)[C@H](CC[C@@H]3CC=CC(=O)O3)[C@H]21	T84	short-circuit current, inhibitor	–	together with: forskolin 20 µM	–	IC50	~6320 nM
Nc1ncc(-c2cc(-c3cnn(CC(F)(F)F)c3)ncc2F)nc1C(=O)NC1CNCC(F)C1 (stereo not drawn)	MET	KINOMEscan competition binding	–	1 µM	relative to: DMSO control	remaining binding	49%
Cc1nn(-c2cccc(N)c2)c(=O)c2cnc(Nc3ccc(N4CCNCC4)cc3)nc12	RPS6KA2 (Homo sapiens, UniProt Q15349)	enzyme activity, inhibitor	–	–	–	IC50	> 10000 nM
CN1CCCNC(=O)c2cccc(c2)C(=O)NCCCN(C)CCCNc2cccc3c2C(=O)c2cccc(c2C3=O)NCCC1	SAS	RNA-Seq, measured: AKAP8 mRNA	–	1 µM, 6 h	relative to: untreated cells	log2 fold change	-1.82
CNS(=O)(=O)Nc1nccc(Cc2c(C)c3ccc(Oc4ncccc4F)cc3oc2=O)c1F	SW780	cell viability	–	7 days	–	IC50	21.6 nM

For quick reference, copied from above:
Structure (SMILES)	target or system	assay	system	conditions	scale	measurement	value
COc1ccc(C(O)=CC(=O)c2ccc(C(C)(C)C)cc2)cc1.[Ru+2].c1ccc(-c2ccccn2)nc1.c1ccc(-c2ccccn2)nc1	DU-145	cytotoxicity	–	dark	–	IC50	93 nM
Cc1ncsc1-c1ccc(C(C)NC(=O)C2CC(O)CN2C(=O)C(NC(=O)CCCCCCCCCCN2CCCC(Nc3ncc(Cl)c(Nc4ccccc4S(=O)(=O)C(C)C)n3)C2)C(C)(C)C)cc1 (stereo not drawn)	22Rv1	RNA-seq, measured: SUV39H1 mRNA	–	concentration not given	relative to: DMSO	log2 fold change	-1.05
C=CC(=O)N1CC2C(=O)N(CCN(C)C)c3c(c4cc(Cl)c(-c5c(O)cccc5F)nc4n(-c4c(C)ccnc4C(C)C)c3=O)N2CC1C (stereo not drawn)	SK-LU-1	cell growth or viability	–	–	–	IC50	> 10000 nM
CC(C)c1ccc(N(C)c2ccc3c(c2)OCC[C@H]3CNc2cnccc2C(=O)O)cc1	RL	cell growth, CellTiter-Glo	–	7 days	–	IC50	2.99 nM
CCOC(=O)/C=C1\S/C(=N\N=C\c2cccc3cc4ccccc4nc23)N(c2ccc(OC)cc2)C1=O	PATU	cell proliferation, MTT	–	48 h	–	IC50	> 50000 nM
